Assay results from different studies.
Protocols differ between the studies behind these lines.
RNA riboswitch: RNA riboswitch (Geobacter sulfurreducens)
T1: RNA aptamer; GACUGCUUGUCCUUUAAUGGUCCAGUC
T2: RNA hairpin; CGCGAAAGCG
T3: G-quadruplex DNA, dimeric G-quadruplex; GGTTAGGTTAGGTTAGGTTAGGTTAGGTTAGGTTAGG
T4: RNA aptamer; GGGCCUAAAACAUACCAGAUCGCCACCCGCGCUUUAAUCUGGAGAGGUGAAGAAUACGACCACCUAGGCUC
T5: G-quadruplex DNA (Homo sapiens); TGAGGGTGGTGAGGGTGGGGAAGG
T6: RNA aptamer A13U; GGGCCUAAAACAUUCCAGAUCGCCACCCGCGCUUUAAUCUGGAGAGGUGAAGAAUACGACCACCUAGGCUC
T7: RNA riboswitch A6G/A18U; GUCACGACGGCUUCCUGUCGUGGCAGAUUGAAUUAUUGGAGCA
T8: RNA riboswitch (Geobacter sulfurreducens); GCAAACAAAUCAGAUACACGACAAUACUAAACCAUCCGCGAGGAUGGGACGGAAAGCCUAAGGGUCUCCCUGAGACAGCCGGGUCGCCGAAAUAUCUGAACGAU
T9: G-quadruplex DNA (Homo sapiens); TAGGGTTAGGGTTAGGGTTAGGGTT
T10: RNA riboswitch C30U (Lactobacillus rhamnosus); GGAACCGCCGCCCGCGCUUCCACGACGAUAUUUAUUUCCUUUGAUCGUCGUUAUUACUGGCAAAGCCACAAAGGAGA

Compound | target | test | setting | Kd [nM]
NC[C@@H]1O[C@H](O[C@H]2[C@@H](O)[C@H](O[C@@H]3[C@@H](O)[C@H](N)C[C@H](N)[C@H]3O[C@H]3O[C@H](CN)[C@@H](O)[C@H](O)[C@H]3N)O[C@@H]2CO)[C@H](N)[C@@H](O)[C@@H]1O | T1, RNA aptamer | ITC | NaCl 200 mM | 9.2
Nc1ccc(-c2cc3ccc(C4=NCCN4)cc3[nH]2)cc1 | T2, RNA hairpin | fluorescence titration | 1000 nM, pH 7.0 | > 200000
Cc1ccc(Cn2cc3c(-c4ccc5c(c4)OCO5)nnc-3c3cc4c(cc32)OCO4)cc1 | T3, G-quadruplex DNA, dimeric G-quadruplex | fluorescence titration | KCl 100 mM | 1460
CN(C)[C@@H]1C(=O)C(C(N)=O)=C(O)[C@@]2(O)C(=O)C3=C(O)c4c(O)cccc4[C@@](C)(O)[C@H]3C[C@@H]12 | T4, RNA aptamer | fluorescence titration | pH 7.5, 25 °C, MgCl2 10 mM | 0.77
C[n+]1ccc(/C=N/NC(=O)c2cncc(C(=O)N/N=C/c3cc[n+](C)c4ccccc34)n2)c2ccccc21 | T5, G-quadruplex DNA (Homo sapiens) | Cy5 fluorescence quenching titration | pH 7.2, KCl 100 mM | 8.5
C[C@H]1c2cccc(O)c2C(=O)C2=C(O)[C@]3(O)C(=O)C(C(N)=O)=C(O)[C@@H](N(C)C)[C@@H]3[C@@H](O)[C@@H]21 | T6, RNA aptamer A13U | fluorescence titration | pH 7.5, 25 °C, MgCl2 10 mM | 2420
C[S+](CC[C@H](N)C(=O)O)C[C@H]1O[C@@H](n2cnc3c(N)ncnc32)[C@H](O)[C@@H]1O (stereo partly drawn) | T7, RNA riboswitch A6G/A18U | ITC | KCl 50 mM, one-site model | 47000
Nc1nc2c(ncn2[C@@H]2O[C@@H]3COP(=O)(S)O[C@H]4[C@@H](O)[C@H](n5cnc6c(N)ncnc65)O[C@@H]4COP(=O)(S)O[C@H]3[C@H]2O)c(=O)[nH]1 (stereo partly drawn) | T8, RNA riboswitch (Geobacter sulfurreducens) | competition gel shift | Mg2+ 10 mM, together with: 32P c-AMP-GMP | 1200
C[n+]1cccc2cc(/C=N/NC(=O)c3ccc4ccc5ccc(C(=O)N/N=C/c6ccc7c(ccc[n+]7C)c6)nc5c4n3)ccc21 | T9, G-quadruplex DNA (Homo sapiens) | Cy5 fluorescence quenching titration | pH 7.2, KCl 100 mM, first transition | 9.2
C[C@@]1(O)c2cccc(O)c2-c2n[nH]c3c2[C@@H]1C[C@H]1CC(O)=C(C(N)=O)C(=O)[C@@]31O | T4, RNA aptamer | fluorescence titration | pH 7.5, 25 °C, MgCl2 10 mM | 0.46
NCc1c[nH]c2nc(N)[nH]c(=O)c12 | T10, RNA riboswitch C30U (Lactobacillus rhamnosus) | ITC | pH 7.0, NaCl 0.10 M | 810
Nc1nc2c(ncn2[C@@H]2O[C@@H]3COP(=O)(O)O[C@H]4[C@@H](N)[C@H](n5cnc6c(N)ncnc65)O[C@@H]4COP(=O)(O)O[C@H]3[C@H]2O)c(=O)[nH]1 | T8, RNA riboswitch (Geobacter sulfurreducens) | competition gel shift | Mg2+ 10 mM, together with: 32P c-AMP-GMP | 21
